Results pooled from the literature.
Every numbered part comes from another study and shows a few of its results, in no order. Changes are numbered by the printed parent chain.

Sample 1
Target: Prothrombin, mature alpha-thrombin (F2, Homo sapiens, UniProt P00734)
Technique: aptamer microarray, sandwich
Molecule type: DNA with 2'F-ANA
Medium: in vitro
Concentration: 200 nM
Setting: whole 15-mer aptamer, many near background
Added: Cy3 exosite-II aptamer, 400 nM
Reading: higher = stronger binding
Oligonucleotide: GGTTGGTGTGGTTGG
Modification	mean fluorescence intensity [a.u.]
2'F-ANA at 1 2 3 4 9 11	124
2'F-ANA at 1 3 6 9 10 11 13 14	61.5
2'F-ANA at 1 7 8 9 10 12 13 15	70.3
2'F-ANA at 1 4 5 9 11 14 15	53.3
2'F-ANA at 1 2 3 5 8 13	53.3
2'F-ANA at 1 5 7 8 9 12 15	122
2'F-ANA at 1 3 4 9 10 12 15	84.4
2'F-ANA at 9 10 11 14	107
2'F-ANA at 2 3 7 8 9 10 12 13 14	309
2'F-ANA at 2 5 7 8 9 10 14	45.1
2'F-ANA at 2 3 4 6 7 8 10 13 14 15	135
2'F-ANA at 1 6 7 11 13 15	138
2'F-ANA at 1 2 8 9 12 14 15	71.6
2'F-ANA at 1 6 7 8 12 14	91.6
2'F-ANA at 3 4 6 13	687
2'F-ANA at 4 5 6 10 11 13 14 15	123
2'F-ANA at 1 2 3 7 8 10 11 13 14 15	65
2'F-ANA at 1 2 3 5 9 11 12 13 15	73.8
2'F-ANA at 2 3 4 9 11 12 13 14 15	279
2'F-ANA at 1 2 5 9 11 13 14	50.1
2'F-ANA at 3 9 10	531
2'F-ANA at 6 9 10 14	106
2'F-ANA at 1 4 6 8 9 10 12 13 14	71.9
2'F-ANA at 1 2 4 5 6 7 8 10 11 12 13 14	53.8

Sample 2
Target: CCND2, cyclin fold, Cln2 fusion (human)
Technique: yeast growth competition, sequencing
Medium: yeast
Setting: weak parent motif
Relative to: not given
Reading: higher = stronger binding
Starting sequence: BRCA2 docking peptide (human); PSIKRNLLNEFDR
Variant	normalised enrichment score
PSIKPNLLNEFDR [R5P]	0.134
PSIKRNLLVEFDR [N9V]	0.0997
PSIKRNALNEFDR [L7A]	-0.2
PSIKRNLLNEFKR [D12K]	0.221
PSIKRNLLNEEDR [F11E]	-0.144
PSIKRRLLNEFDR [N6R]	0.183
PSIKRNLLNEFDK [R13K]	-0.706
PSIKRNLLNEFPR [D12P]	0.237
PSIKRNLLNWFDR [E10W]	0.0632
PSRKRNLLNEFDR [I3R]	0.0453
HSIKRNLLNEFDR [P1H]	-0.0205
PSIKRYLLNEFDR [N6Y]	-0.032
PSLKRNLLNEFDR [I3L]	0.815
PSIKRSLLNEFDR [N6S]	0.0928
PDIKRNLLNEFDR [S2D]	0.564
PSIKRNLLNAFDR [E10A]	-0.137
PIIKRNLLNEFDR [S2I]	0.879
MSIKRNLLNEFDR [P1M]	0.356
PSIKTNLLNEFDR [R5T]	-0.301
PSIKRNLLNEVDR [F11V]	0.427
PSIKRNLLHEFDR [N9H]	0.385
ASIKRNLLNEFDR [P1A]	0.089
PSIKRNLLNEGDR [F11G]	0.146

Sample 3
Target: ABI1, truncated, D143A, DHFR fusion (Arabidopsis thaliana)
Technique: DHFR PCA, deep sequencing
Medium: yeast
Setting: methotrexate growth selection, single substitutions
Added: (+)-ABA 4.8 µM
Relative to: wild-type fitted maximum
Reading: higher = stronger binding
Starting sequence: PYL1, truncated, DHFR fusion (Arabidopsis thaliana); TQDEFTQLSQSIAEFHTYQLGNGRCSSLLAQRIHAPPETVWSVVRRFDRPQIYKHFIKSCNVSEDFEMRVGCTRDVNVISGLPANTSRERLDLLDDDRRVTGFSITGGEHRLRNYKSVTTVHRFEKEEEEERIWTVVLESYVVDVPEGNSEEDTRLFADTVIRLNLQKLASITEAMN
Variant	relative binding score [%]
R155T	59.5
V40P	2.56
R46H	21.4
D92S	10
L8A	31.2
Y18H	81.9
E131M	74.2
Q10S	79.1
L91W	3.87
T160Y	63.1
V161Y	8
E174L	9.92
P50S	0.699
C72Y	18
V70S	26.3
V136P	-4.93
E152L	51.2
A170K	95.4
R155Q	53.9
R24Y	26.4
T73I	79.6
E14D	55.8
Y53W	70.8

Sample 4
Target: RNA binding protein fox-1 homolog 2, RRM domain, GST-SBP tag (RBFOX2, Homo sapiens, UniProt O43251-10, residues 100-194)
Technique: RNA Bind-n-Seq
Molecule type: RNA
Medium: in vitro
Concentration: 365 nM
Setting: natural RNA segment, single round, ends assumed
Relative to: no-protein control
Reading: higher = stronger binding
Constant ends, left off below: GGGAGUUCUACAGUCCGACGAUC … UGGAAUUCUCGGGUGCCAA
Residues (chain): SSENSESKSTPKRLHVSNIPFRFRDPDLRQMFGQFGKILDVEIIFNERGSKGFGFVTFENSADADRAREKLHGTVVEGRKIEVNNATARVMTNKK
Oligonucleotide	RBNS enrichment (R)
AGAAAGAAUCCCCUGAACUUUUCAAGGGGUUUAUAUGGUAGCACCAAAUGGAGAAUGAGCAUCUAAAAAUGACACAUCCCGAAAGGGCAAUCUGUGGAAGUUUGUUGUUU	0.429
UCAGCUCACACAAUUCCAAAGGAAACUGGCCUUGCUGAGGGUGCUGCCUGCCUGCGAGGCACCUGCCUUGCAGCAGGCUCUCAGCCCUUCCCUCUGAGCUGCUCAGAGAG	0.21
AAUAUGGUCCAAUUGCUUUUCUUUUUAACAUGACAAACAAUUUUAAAAGAGACUAAGGAACAAACACUAUUGCGCCGAAUGCCAUAACACUGAGUUGUACAAAUUGUGAU	0.34
GUUCAGCACAGUAAAAUAUAUUUGAAAUUUGAUAAGCCAAAAAUGUGGUUUUGAAUGAAUAUUUUGUGAAUCUUUCUUAAAAGCUCAAAUUUGUAGACUUCUAAAUAGAA	2.09
CGGGAGAAACAGCCCAAACCACAGGAAGCAACAGAAACUGGAGAACCGCCACCUUUAGAAUUUCCAACACUCAGGCUCUGCCCGUCGGCUUGGCUGCAGGACAGAGACUU	0.322
UGCGUGAGUGGUGUGCAGGCGCGGUUCCUUACGCCCCAUGUGUGCUGUGUGUGUCCAGGCACGGUUCCUUACGCCCCAUGUGUGCUGUGUGUGUCCUGCCUGUAUAUGUG	0.941
UUCUUGCAUUCUUUCUAAGCAGUCAGCAAGUAUUUAUUAAAUGCUUUAAGGAAAACAAUAAUAGAGUAAUUUUUGAGUUCGCCAAUUACAUCAAUUAAGAAAUUUCAGAA	1.58
AGGAGGUCAAGUUCCACACGCACGAGCCGCCUCAGCUGGACGGUGCAGUCAUGGCUGGCACAUGAGGCUUCGCUGAGGCGACACUGGGCACCUAAUGGGGAUGGAACAUU	2.51

Repeated from above (sample 2):
Variant	normalised enrichment score
PSIKRNLLNWFDR [E10W]	0.0632
PSRKRNLLNEFDR [I3R]	0.0453
HSIKRNLLNEFDR [P1H]	-0.0205
PSIKRYLLNEFDR [N6Y]	-0.032
PSLKRNLLNEFDR [I3L]	0.815
PSIKRSLLNEFDR [N6S]	0.0928
PDIKRNLLNEFDR [S2D]	0.564
PSIKRNLLNAFDR [E10A]	-0.137
PIIKRNLLNEFDR [S2I]	0.879
MSIKRNLLNEFDR [P1M]	0.356
PSIKTNLLNEFDR [R5T]	-0.301
